Assay results gathered from unrelated publications.
± marks the error that the study gave. Positions of bridges follow the written chain, without caps; N, C: chain ends. No end group written: not given here.

COP(=S)(OC)Oc1ccc([N+](=O)[O-])c(C)c1 — apoptotic cells ratio (Caco-2; Hoechst and PI staining; 25 µM, 48 h; baseline: untreated): 6.3
CGLIIQKNEC (disulfide 1-10 (inferred)) (cyclic, disulfide) — cytotoxicity (tumour cell line panel; LDH release; 75 µg/mL, 24 h, 2% serum): toxic
O=C(CNS(=O)(=O)NCc1cccc(Oc2ccccc2)c1)NCCN1CCOCC1 — TD50 (HG23 norovirus replicon cells; 48 h): 165 ± 15 µM
O=Cc1cc(Cn2ccc(=O)[nH]c2=O)ccc1O — minimum cytotoxic concentration (HEL fibroblasts; cell morphology alteration): > 100 µM
C=C(C[C@H](N)C(=O)O)C(=O)Nc1ccc(F)cc1 — concentration increasing cytotoxicity (MDA-MB-231; 24 h; baseline: vehicle): 10 µM
CN(CCCC(=O)O)N=O — relative survival (HepaRG, 2D culture; flow cytometry micronucleus; highest tested concentration, 24 h, plus 3 days hEGF; baseline: vehicle): 63.5%
O=C(O)C(F)(F)C(F)(F)C(F)(F)C(F)(F)C(F)(F)C(F)(F)F — Papp A to B (MDCK; 2 µM, 90 min, pH 7.4, receiver 0.4% BSA): 1.4 ×10⁻⁶ cm/s
COc1cccc(N2C(N)=NC(N)=NC23CCNCC3)c1 — minimum cytotoxic concentration (MDCK; microscopy, altered cell morphology): > 100 µM
CC(C)(C)C(O)(CCc1ccc(Cl)cc1)Cn1cncn1 (centres unmarked) — point of departure (human iPSC-derived cardiomyocytes; mitochondrial membrane potential, refers to: JC-10 granules; 30 min): < 30 µM
Cc1cc(NC(=O)c2cc3c(=O)n4cccc(C)c4nc3n2C)ccc1Br — IC50 (Vero E6; MTT): 139 ± 10.6 µM
Cl.Cl.O=C(c1cc(F)cc(N2CCNCC2)c1)N1CCN(C(=O)c2ccc(O[C@H]3CCNC3)c(C3CCCCC3)c2)CC1 — nonspecific binding (MDA-MB-231; trypsin-EDTA digestion vs solvent extraction; concentration not given, 6 h): 38%
CO[C@]1(CO)O[C@@H](n2ccc(=O)[nH]c2=O)C(F)(F)[C@@H]1O — minimum cytotoxic concentration (HEL embryonic lung fibroblasts; cell morphology, microscopy): > 100 µM
C-type natriuretic peptide — half-life (HEK293 expressing human GC-B; cGMP elevation; human kidney membranes; 37 °C): 4.3 min
CC(C)N(N=O)C(C)C — ATP level (HepaRG 3D spheroids; cell viability; concentration not given, 24 h; baseline: vehicle): 84.7%
COc1c(O)cc2oc3cc(O)c(CC=C(C)C)c(O)c3c(=O)c2c1CC=C(C)C — xanthone metabolite amounts (MDM; RP-HPLC; concentration not given, together with: LPS 100 ng/mL; baseline: unstimulated cells): no effect
C[C@@H]1CCO[C@H]2Cn3cc(C(=O)NCc4ccc(F)cc4F)c(=O)c(O)c3C(=O)N12 — intracellular accumulation (hCMEC/D3; 5 µM, 1 h, 37 °C, 3-drug cART combination): 81.1 ± 18.5 pmol/mg protein
C=C(C)[C@]12C[C@@H](COC(=O)c3ccccc3)[C@@]34OC5(CCCCCCC[C@@H](C)[C@H]6[C@H](C)C(=O)[C@@](O)([C@H](O)[C@@]7(CO)O[C@H]7[C@H]3[C@H]1O5)[C@@H]64)O2 — IC50 (MT4; cell growth or viability, ATP luminescence): 7.3 µM
CCN(N=O)C(C)C — relative survival (HepaRG, 2D; concentration not given, 24 h, highest tested concentration, hEGF 3 days; baseline: vehicle): 79.3%
CC[C@H](C)[C@H](NC(=O)[C@H](CCCCN)NC(=O)[C@@H](NC(=O)[C@H](CC(N)=O)NC(=O)[C@H](C)NC(=O)[C@H](CCCNC(=N)N)NC(=O)[C@H](CCCNC(=N)N)NC(=O)[C@H](CC(N)=O)NC(=O)[C@H](CCCNC(=N)N)NC(=O)[C@@H](NC(=O)[C@H](CCCNC(=N)N)NC(=O)[C@@H](NC(=O)[C@H](CO)NC(=O)[C@@H](NC(=O)[C@H](CS)NC(=O)[C@H](CCCCN)NC(=O)[C@@H](N)CCCNC(=N)N)[C@@H](C)CC)C(C)C)[C@@H](C)CC)[C@@H](C)CC)C(=O)N[C@@H](CS)C(=O)N[C@@H](CC(N)=O)C(=O)O — hemolysis (human red blood cells; 128 µg/mL, 3 h, 37 °C; baseline: Triton X-100): 0.08%
O=c1cc(-c2ccc(O)c(O)c2)oc2c([C@@H]3O[C@H](CO)[C@@H](O)[C@H](O)[C@H]3O)c(O)cc(O)c12 — maximum non-toxic concentration (A549; cell viability, MTS; 3 days, 90% cells viable): 180.3 ± 0.92 µM

Repeated from above:
COP(=S)(OC)Oc1ccc([N+](=O)[O-])c(C)c1 — apoptotic cells ratio (Caco-2; Hoechst and PI staining; 25 µM, 48 h; baseline: untreated): 6.3
